Experimental data collected from several papers.
Protocols differ between the studies behind these lines. Values joined by “and” are separate records of one study, mostly repeats; a detail may differ.
rep main protease: Replicase polyprotein 1ab, main protease (rep, Severe acute respiratory syndrome coronavirus 2, UniProt P0DTD1)

Substance | tested on | assay | test system | conditions | how to read | quantity | value
COc1ccc(CN=c2[nH]c(N3CCC[C@H]3CO)ncc2C(=O)NCc2ncccn2)cc1Cl | SARS-CoV-2 | viral replication | Huh-7 |  |  | IC50 | > 2 µM
CC(C)(C)[C@H](NC(=O)C(F)(F)F)C(=O)N1C[C@H]2[C@@H]([C@H]1C(=O)N[C@H](C#N)C[C@@H]1CCNC1=O)C2(C)C | SARS-CoV-2 | viral replication | Vero E6 | 1.25 µM |  | inhibition | 13.7% and 25.3%
Cc1cc(C)c2nc(-c3cnc(NCCCC4CCN(C)CC4)nc3C)[nH]c2c1 | SARS-CoV-2 | viral replication, high-content imaging screen |  | cell-based |  | EC50 | > 50.1 µM
CCN(CC)CCOCCOC(=O)C1(c2ccccc2)CCCC1 | SARS-CoV-2 | viral replication | A549 expressing ACE2 | inactive set pIC50 4 |  | IC50 | > 10 µM
Nc1ncnc2c([C@@H]3N[C@H](CO)[C@@H](O)[C@H]3O)c[nH]c12 | Zaire ebolavirus | antibody staining | human macrophages | 25 µM |  | antigen-positive cells | 37.1%
CC(C(O)c1ccc(O)cc1)N1CCC(Cc2ccccc2)CC1 (stereo not drawn) | SARS-CoV-2 |  |  | concentration not given, Paris laboratory |  | viral replication inhibition | inactive
Cc1ccc(C(C)Nc2nc(N3CCNCC3)nc3ccccc23)cc1 (stereo not drawn) | SARS-CoV-2 | cytopathic effect | USA_WA1/2020 |  |  | AC50 | 12.6 µM
CN(C)CC[C@@H](c1ccc(Cl)cc1)c1ccccn1 | SARS-CoV-2 | viral replication, RT-qPCR | A549 expressing ACE2 |  |  | IC50 | > 10 µM
CNC1CC(c2ccc(Cl)c(Cl)c2)c2ccccc21 (stereo not drawn) | SARS-CoV-2 | viral replication, high-content imaging screen |  | cell-based |  | EC50 | > 100 µM
Cc1oc(-c2ccccc2)nc1CCC(=O)c1ccc(CC2SC(=O)NC2=O)cc1 (stereo not drawn) | SARS-CoV-2 |  | Vero C1008 |  | relative to: CC50 over EC50 | selectivity index | 6.47
Fc1ccc(-c2ccc(CN3CCN(c4cccc5ccoc45)CC3)[nH]2)cc1 | SARS-CoV-2 | viral replication, inhibitor | Vero E6, USA-WA1/2020 | 24 h |  | EC90 | > 2500 nM
COc1ccc(C[C@@H]2c3cc(Oc4cc(C[C@@H]5c6cc(O)c(OC)cc6CCN5C)ccc4O)c(OC)cc3CCN2C)cc1 | SARS-CoV-2 | viral cytopathic effect | Vero E6 | 12.5 µM |  | mean inhibition | 0%
Cc1cc(C2CCCCC2)n(OCOP(=O)(O)O)c(=O)c1 | rep main protease | viral replication, Gluc reporter | SARS-CoV-2 | 20 µM |  | inhibition | -0.569%
CN(C)C(=O)Nc1cc(CNc2ccccc2C(=O)Nc2ccc3cn(C)nc3c2)ccn1 | SARS-CoV-2 | viral replication | Vero C1008, USA-WA1/2020 | 2.5 µM, reconfirmation |  | inhibition | 40.6%
CC[C@@H](C(=O)[C@@H](C)[C@@H](O)[C@H](C)CCc1ccc(C)c(O)c1C(=O)O)[C@H]1O[C@](CC)([C@H]2CC[C@](O)(CC)[C@H](C)O2)C[C@@H]1C | SARS-CoV-2 | viral replication, GFP plate reader screen |  | cell-based |  | EC50 | > 0.631 µM
O=C(O)c1cc(NCc2cc(O)ccc2O)ccc1O | rep main protease | reporter gene (mKate2), inhibitor |  | 20 µM |  | inhibition | -1.4%
CCN(CC)CCNC(=O)c1cc(-c2ccc(Br)s2)nc2ccccc12 | SARS-CoV-2 | cytopathic effect | USA_WA1/2020 | retest, 8-point, duplicates |  | efficacy | 95.2%
CC(C)=CCc1c(O)ccc(C(=O)/C=C/c2ccc(O)cc2)c1O | SARS-CoV-2 | viral replication | Vero E6 | 6.25 µM |  | CPE inhibition | 0%
Cc1nn(-c2ccc(Cl)cc2)c2c1C(c1ccc(Cl)c(Cl)c1)C(C#N)=C(N)O2 (stereo not drawn) | SARS-CoV-2 | viral replication | Vero | 1 µM |  | viral reduction | 0.222%
CCCCNC(=O)C1CCCN(Cc2nc(-c3ccc(Cl)cc3)oc2C)C1 (stereo not drawn) | SARS-CoV-2 | cytopathic effect | USA_WA1/2020 | retest, 8-point, duplicates |  | maximum response | 24.9%
Cc1ccc(Nc2nccc(N(C)c3ccc4c(C)n(C)nc4c3)n2)cc1S(N)(=O)=O | SARS-CoV-2 |  |  | concentration not given, Paris laboratory |  | viral replication inhibition | inactive
Cc1ccc2nc(C3CCCN(Cc4cccc(-c5cccnc5)c4)C3)[nH]c(=O)c2c1 (stereo not drawn) | SARS-CoV-2 | cytopathic effect, cell-based CPE | USA_WA1/2020 |  |  | AC50 | 14.1 µM
Cc1nn(-c2ccc(Cl)cc2)c2c1C(c1ccc(-c3ccccc3)cc1)C(C#N)=C(N)O2 (stereo not drawn) | SARS-CoV-2 | RT-qPCR, measured: viral RNA | Vero | 10 µM | higher means less virus | Ct value | 26.1 cycles
Cc1ccc(NS(=O)(=O)c2cccc(C(=O)NC3CCN(c4ncnc5[nH]cnc45)CC3)c2)cc1 | SARS-CoV-2 |  | A549-ACE2, Wuhan-Hu-1 | 7.407 µM | relative to: untreated | relative infection | 59.6%

Substance | tested on | assay | test system | conditions | how to read | quantity | value
CN(C)CC/C=C1/c2ccccc2Sc2ccc(Cl)cc21 | SARS-CoV-2 | viral replication, high-content imaging screen |  | cell-based |  | EC50 | > 100 µM
CCC1CCCCN1CCCNC(=O)c1sc2nc(C)cc(C)c2c1-n1cccc1 (stereo not drawn) | SARS-CoV-2 | cytopathic effect | USA_WA1/2020 | retest, 8-point, duplicates |  | efficacy | 35.6%
Cc1c(-c2ccccc2)oc2c(C(=O)OCCN3CCCCC3)cccc2c1=O | SARS-CoV-2 | viral replication, anti-nucleoprotein immunostaining | Vero E6 |  |  | IC50 | > 10 µM
[N-]=[N+]=N[C@]1(CO)O[C@@H](n2ccc(N)nc2=O)[C@@H](F)[C@@H]1O | SARS-CoV-2 | imaging | Calu-3, Omicron BA.1 | concentration not given |  | antiviral activity | inactive
O=C(CN1CCC(CN2Cc3ccccc3C2=O)CC1)c1ccc(F)cc1 | SARS-CoV-2 | viral replication, RT-qPCR | A549 expressing ACE2 |  |  | IC50 | > 10 µM
heparin sodium | SARS-CoV-2 | viral replication | Huh-7 |  |  | IC50 | > 2 µM
C#C[C@]1(OC(C)=O)CC[C@H]2[C@@H]3CCC4=CC(=NO)CC[C@@H]4[C@H]3CC[C@@]21CC (mixture of isomers) | SARS-CoV-2 | viral replication, high-content imaging screen |  | cell-based |  | EC50 | > 100 µM
Clc1ccccc1C1(c2ccnc(-c3ccccc3)n2)CCNCC1 | SARS-CoV-2 | cytopathic effect | USA_WA1/2020 | retest, 8-point, duplicates |  | maximum response | 82.3%
Cc1ncsc1-c1ccc(CNC(=O)[C@@H]2C[C@@H](O)CN2C(=O)[C@@H](NC(=O)COCCOCCOCCNC(=O)C[C@@H]2N=C(c3ccc(Cl)cc3)c3c(sc(C)c3C)-n3c(C)nnc32)C(C)(C)C)cc1 | SARS-CoV-2 | viral replication | Vero E6 | concentration not given |  | activity class | active
Cc1nn(-c2ccc(Cl)cc2)c2c1C(c1ccc(F)cc1F)C(C#N)=C(N)O2 (stereo not drawn) | SARS-CoV-2 | RT-qPCR, measured: viral RNA | Vero | 1 µM | higher means less virus | Ct value | 23.7 cycles
O=C(O[C@@H]1Cc2c(O)cc(O)cc2O[C@@H]1c1cc(O)c(O)c(O)c1)c1cc(O)c(O)c(O)c1 | SARS-CoV-2 | viral replication | Vero E6 | 1.562 µM |  | CPE inhibition | 0%
COc1cc(/C=C/C(=O)CC(=O)/C=C/c2ccc(O)c(OC)c2)ccc1O | SARS-CoV-2 | viral replication, high-content imaging screen |  | cell-based |  | EC50 | > 100 µM
Nc1ncnc2c1nnn2[C@@H]1C(F)=C(CO)[C@@H](O)[C@H]1O | SARS-CoV-2 | spike protein immunostaining | Vero |  | relative to: CC50 over EC50 | selectivity index | > 8.2
COc1cc2c(N3CCN(C(=O)Nc4ccc(OC(C)C)cc4)CC3)ncnc2cc1OCCCN1CCCCC1 | SARS-CoV-2 | viral replication, high-content imaging screen |  | cell-based |  | EC50 | > 100 µM
O=C(NCCCN1CCCCCC1)c1ccc2c(c1)sc1nc(-c3ccccc3)cn12 | SARS-CoV-2 | cytopathic effect | USA_WA1/2020 | retest, 8-point, duplicates |  | maximum response | 70.6%
CC[C@H](C)[C@H](NC(=O)[C@H](CC(C)C)NC(=O)[C@H](Cc1c[nH]c2ccccc12)NC(=O)[C@H](CCC(N)=O)NC(=O)[C@@H](NC(=O)[C@H](Cc1ccccc1)NC(=O)[C@H](C)NC(=O)[C@H](CCCCNC(=O)COCCOCCNC(=O)COCCOCCNC(=O)CC[C@H](NC(=O)CCCCCCCCCCCCCCCCCCC(=O)O)C(=O)O)NC(=O)[C@H](CCC(N)=O)NC(=O)[C@H](C)NC(=O)[C@@H](NC(=O)[C@H](CCCCN)NC(=O)[C@H](CC(=O)O)NC(=O)[C@H](CC(C)C)NC(=O)C(C)(C)NC(=O)[C@@H](NC(=O)[C@H](CO)NC(=O)[C@H](Cc1ccc(O)cc1)NC(=O)[C@H](CC(=O)O)NC(=O)[C@H](CO)NC(=O)[C@@H](NC(=O)[C@H](Cc1ccccc1)NC(=O)[C@@H](NC(=O)CNC(=O)[C@H](CCC(=O)O)NC(=O)C(C)(C)NC(=O)[C@@H](N)Cc1ccc(O)cc1)[C@@H](C)O)[C@@H](C)O)[C@@H](C)CC)[C@@H](C)CC)C(C)C)C(=O)N[C@@H](C)C(=O)NCC(=O)NCC(=O)N1CCC[C@H]1C(=O)N[C@@H](CO)C(=O)N[C@@H](CO)C(=O)NCC(=O)N[C@@H](C)C(=O)N1CCC[C@H]1C(=O)N1CCC[C@H]1C(=O)N1CCC[C@H]1C(=O)N[C@@H](CO)C(N)=O |  |  | healthy human | 8.0 mg, single ascending dose |  | serious adverse events | 0%
Cc1noc2c1-c1ccccc1C(c1ccc(Cl)cc1)=N[C@H]2CC(N)=O | SARS-CoV-2 |  | Vero E6 | concentration not given, NYC laboratory |  | viral replication inhibition | inactive
CC(C)(C)c1cc(O)ccc1O | SARS-CoV-2 | viral replication | Huh-7 |  |  | IC50 | > 2 µM
COc1ccc2c(Sc3ccc(Cl)cc3)c(C(=O)NCCCN3CCCCC3)[nH]c2c1 | SARS-CoV-2 | cytopathic effect, cell-based CPE | USA_WA1/2020 | round 2, 5-point dilution |  | AC50 | 12.6 µM
Cc1nn(-c2ccc(Cl)cc2)c2c1C(c1ccc(Br)cc1)C(C#N)=C(N)O2 (stereo not drawn) | SARS-CoV-2 |  | Vero | 10 µM |  | viral titre | 611000 IU/mL
Cc1ccnc2c1NC(=O)c1cccnc1N2C1CC1 | SARS-CoV-2 | viral replication | Huh-7 |  |  | IC50 | > 2 µM
O=C(/C=C/c1ccc(O)c(O)c1/C=C/c1ccc(O)c(O)c1)O[C@H](Cc1ccc(O)c(O)c1)C(=O)O | SARS-CoV-2 | viral replication | Vero E6 | 50 µM |  | CPE inhibition | 25%
CN1CCN(CC/C=C2/c3ccccc3Sc3ccc(S(=O)(=O)N(C)C)cc32)CC1 | SARS-CoV-2 | viral replication, GFP plate reader screen |  | cell-based |  | EC50 | > 100 µM
calpain inhibitor III | SARS-CoV-2 | viral replication | Vero E6, USA-WA1/2020 |  |  | EC90 | 1030 nM
